Measurements of several laboratories.
Each line is one published result; not all experiments were run side by side.

With `[O-][N+]1=C(c2ccccc2)C2=NCCN2c2ccccc21` the MIC was ≤ 0.06 µg/mL (Eggerthella lenta; microbial growth; ATCC43055).
With `COc1ccc2ccc3c(c2c1)C=[N+]1C2CCCCC2[N+]2=Cc4cc(C(C)(C)C)cc(C(C)(C)C)c4[O][Au-]21[O]3.F[P-](F)(F)(F)(F)F` (stereo not shown) the MIC was > 20 µM (Klebsiella pneumoniae; bacterial growth, broth microdilution; carbapenem-resistant clinical isolate; 24 h).
With `C=CCCC[C@@H]1NC(=O)[C@H](CC(C)C)NC(=O)[C@H](C)NC(=O)[C@H](NC(=O)[C@H](CO)NC(=O)[C@@H](CCCCN)NC(=O)[C@@H](CCCC=C)NC(=O)[C@@H](N)Cc2ccccc2)[C@H](C)OC1=O` the MIC was 0.5 µg/mL (Bacillus subtilis Bacillus subtilis; ATCC 6051; tested as TFA salt).
With `CC[C@H](C)[C@H](NC(=O)[C@H](CO)NC(=O)[C@H](CO)NC(=O)[C@H](Cc1ccccc1)NC(=O)CN)C(=O)N[C@@H](Cc1ccccc1)C(=O)N[C@@H](CCCNC(=N)N)C(N)=O` the MIC was > 128 µM (Escherichia coli; ATCC 8739; added: 4 µM FeCl3).
With `CC[C@H](C)[C@H](NC(=O)[C@H](Cc1c[nH]c2ccccc12)NC(=O)[C@H](CCCNC(=N)N)NC(=O)[C@H](CCC(N)=O)NC(=O)[C@@H](NC(=O)[C@H](Cc1c[nH]c2ccccc12)NC(=O)[C@H](CCCNC(=N)N)NC(=O)[C@H](CCCNC(=N)N)NC(=O)[C@H](C)NC(=O)[C@H](C)NC(=O)[C@H](C)NC(=O)[C@@H](NC(=O)[C@H](CCCCN)NC(=O)[C@@H]1CCCN1C(=O)[C@H](CCCNC(=N)N)NC(=O)[C@H](Cc1c[nH]c2ccccc12)NC(=O)[C@H](CCCNC(=N)N)NC(=O)[C@H](CCCNC(=N)N)NC(=O)[C@@H](NC(=O)[C@H](Cc1c[nH]c2ccccc12)NC(=O)[C@H](CCCNC(=N)N)NC(=O)[C@H](CCC(N)=O)NC(=O)[C@@H](NC(=O)[C@H](Cc1c[nH]c2ccccc12)NC(=O)[C@H](CCCNC(=N)N)NC(=O)[C@@H](N)CCCNC(=N)N)C(C)C)[C@@H](C)CC)C(C)C)C(C)C)C(=O)N[C@@H](CCCNC(=N)N)C(=O)N[C@@H](CCCNC(=N)N)C(=O)N[C@@H](Cc1c[nH]c2ccccc12)C(=O)N[C@@H](CCCNC(=N)N)C(=O)N1CCC[C@H]1C(=O)N[C@@H](CCCCN)C(=O)N[C@H](C(N)=O)C(C)C` the MIC was ≤ 0.3 µM (Malassezia furfur; cell growth; DTO 383-D9; 48 h, 30 °C).
For `CC[C@H](C)[C@H](NC(=O)[C@H](C)NC(=O)[C@@H](NC(=O)[C@H](CC(=O)O)NC(=O)[C@H](CCCCN)NC(=O)[C@H](CO)NC(=O)[C@@H](NC(=O)[C@H](CC(N)=O)NC(=O)[C@H](C)NC(=O)[C@@H](NC(=O)[C@H](CCC(=O)O)NC(=O)[C@H](CCCCN)NC(=O)[C@@H](NC(=O)[C@@H](NC(=O)[C@H](Cc1c[nH]cn1)NC(=O)[C@H](CCCCN)NC(=O)[C@@H](NC(=O)[C@H](CCCCN)NC(=O)[C@H](CCCCN)NC(=O)[C@@H](NC(=O)[C@H](CC(C)C)NC(=O)[C@H](CCCCN)NC(=O)[C@H](CC(N)=O)NC(=O)[C@H](Cc1ccccc1)NC(=O)[C@H](CCCNC(=N)N)NC(=O)[C@H](CCCCN)NC(=O)[C@H](CCCNC(=N)N)NC(=O)[C@H](Cc1ccccc1)NC(=O)CN)C(C)C)C(C)C)[C@@H](C)O)[C@@H](C)CC)[C@@H](C)O)C(C)C)C(C)C)C(=O)N[C@H](C(=O)N[C@@H](C)C(=O)NCC(=O)N[C@@H](CO)C(=O)NCC(=O)N[C@H](C(=O)N[C@@H](C)C(=O)N[C@H](C(=O)NCC(=O)N[C@@H](C)C(=O)N[C@@H](C)C(=O)N[C@@H](CCSC)C(N)=O)C(C)C)C(C)C)C(C)C`, the MIC was ~0.063 µg/mL (E. coli, K. pneumoniae, A. baumannii; CAMHB with 10% human serum).
For `[O-][N+]1=C(c2ccc(Cl)cc2)C2=NCCCN2c2ccccc21`, the MIC was 0.25 µg/mL (Fusobacterium nucleatum; microbial growth; ATCC25586).
The MIC of `CN[C@@H]1[C@H](O)[C@H](NC)[C@H]2O[C@]3(O)[C@H](O[C@@H]2[C@H]1O)O[C@H](C)C[C@@]3(O)CNCc1ccccc1` is reported as 25 µg/mL (Listeria monocytogenes).
The MIC of `C[N+]1=C2C(c3ccccc3)=[N+]([O-])c3ccccc3N2CCC1` is reported as 16 µg/mL (Peptostreptococcus anaerobius).
For `O=C(NCc1nc(-c2ccc(Br)cc2)c[nH]1)Nc1ncc(Sc2ccccn2)s1`, the MIC was > 128 µM (Bacteroides ovatus; broth microdilution; ATCC 8485; without verapamil).
